{"data": "Results gathered from unrelated publications", "note": "Compare with care: the assays were run in different laboratories. ± marks the error that the study gave.", "chain of UniProt O00425 (whole entry, looked up)": "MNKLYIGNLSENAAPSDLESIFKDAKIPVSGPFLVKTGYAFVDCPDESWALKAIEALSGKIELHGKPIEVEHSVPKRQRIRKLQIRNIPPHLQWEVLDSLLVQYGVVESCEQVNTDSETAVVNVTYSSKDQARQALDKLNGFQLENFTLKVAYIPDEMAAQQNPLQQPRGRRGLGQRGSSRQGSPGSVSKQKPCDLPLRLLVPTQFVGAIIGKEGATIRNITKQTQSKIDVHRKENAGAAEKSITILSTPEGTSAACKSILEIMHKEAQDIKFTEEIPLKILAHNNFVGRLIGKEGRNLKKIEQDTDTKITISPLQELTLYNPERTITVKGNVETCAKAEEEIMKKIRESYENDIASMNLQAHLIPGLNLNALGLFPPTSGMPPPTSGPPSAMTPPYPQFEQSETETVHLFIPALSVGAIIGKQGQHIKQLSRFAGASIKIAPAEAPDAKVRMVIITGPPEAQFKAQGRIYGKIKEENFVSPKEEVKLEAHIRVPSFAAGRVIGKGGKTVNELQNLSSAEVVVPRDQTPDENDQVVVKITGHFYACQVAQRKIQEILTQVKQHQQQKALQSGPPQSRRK"}
{"SMILES": "CC[C@H](C)[C@@H]1NC(=O)[C@@H]2CCCN2C(=O)[C@H](CC(C)C)NC(=O)[C@H](CC(C)C)NC(=O)CNC(=O)[C@@H](NC(=O)[C@@H](NC(=O)[C@H](CC(=O)O)NC(=O)CNC(=O)[C@@H](NC(=O)[C@H](C)NC(=O)CNC(=O)[C@H](CCCCN)NC(=O)[C@H](CC(C)C)NC(=O)[C@H](CC(C)C)NC(=O)[C@H](CCCCN)NC(=O)CNC(=O)[C@@H](NC(=O)[C@@H](N)CC(C)C)C(C)C)C(C)C)C(C)C)CSSC[C@@H](C(=O)O)NC1=O", "assay": "RNA-seq, refers to: Olfr56 mRNA", "test system": "mouse traumatic brain injury, frontal cortex and hippocampus", "conditions": "dose not given", "how to read": "reference: TBI plus compound vs TBI", "quantity": "log2 fold change", "value": -4.9}
{"SMILES": "COc1cc(CCC[P+](c2ccccc2)(c2ccccc2)c2ccccc2)c(OC)c2c1OCO2.[I-]", "target or system": "SN12C", "assay": "SRB", "quantity": "LC50", "value": "-4.38 log M"}
{"SMILES": "CC[C@H](C)[C@H](NC(=O)[C@H](C)NC(=O)[C@H](CCCCN)NC(=O)[C@H](CC(C)C)NC(=O)[C@H](C)NC(=O)[C@@H](NC(=O)[C@H](Cc1c[nH]cn1)NC(=O)[C@H](CC(C)C)NC(=O)[C@@H](NC(=O)[C@@H](NC(=O)[C@H](CCCCN)NC(=O)[C@H](C)NC(=O)[C@H](C)NC(=O)[C@H](CO)NC(=O)[C@H](CCCCN)NC(=O)[C@H](Cc1ccccc1)NC(=O)[C@@H](NC(=O)[C@H](CCCCN)NC(=O)[C@H](CC(C)C)NC(=O)[C@H](Cc1ccccc1)NC(=O)[C@H](CO)NC(=O)[C@H](CCCCN)NC(=O)[C@H](Cc1c[nH]c2ccccc12)NC(=O)[C@H](CCCCN)NC(C)=O)[C@@H](C)O)[C@@H](C)O)C(C)C)[C@@H](C)O)C(=O)N[C@@H](CO)C(=O)N[C@@H](CO)C(N)=O", "target or system": "Streptococcus pyogenes", "test system": "ATCC 13813", "conditions": "1 strain", "quantity": "MBC90", "value": "16 µg/mL"}
{"SMILES": "C[C@H]1CN(c2n[nH]c3nc(N[C@H]4CC[C@H](NS(=O)(=O)CCC(F)(F)F)CC4)ncc23)CCO1", "target or system": "IGF2BP3 (Homo sapiens, UniProt O00425)", "assay": "inhibitor, Kinobeads competition profiling", "conditions": "20 µM", "how to read": "reference: vehicle", "quantity": "relative abundance", "value": 1.13}
{"SMILES": "CN1CCN(S(=O)(=O)c2cc([N+](=O)[O-])ccc2N(CCOS(C)(=O)=O)CCOS(C)(=O)=O)CC1", "test system": "NSG mice, sample DB PDX", "conditions": "intraperitoneal, 25 mg/kg weekly x3", "quantity": "event-free survival", "value": "55 days"}
{"SMILES": "c1ccc(C(NCCNC(c2ccccc2)c2ccccc2)c2ccccc2)cc1", "target or system": "sigma receptor, guinea pig", "assay": "binding", "conditions": "10 µM, Eurofins selectivity panel", "quantity": "inhibition", "value": "70%"}
{"SMILES": "CO/C=C(/C(=O)OC)c1ccccc1Oc1cc(Oc2ccccc2C#N)ncn1", "target or system": "Fusarium graminearum", "assay": "fungal growth, inhibitor", "quantity": "EC50", "value": "20.2 ± 1.39 µg/mL"}
{"SMILES": "O=C1NC(=O)C(C2C3=C(CCCC3=O)Oc3ccc([N+](=O)[O-])cc32)C(=O)N1 (stereo not shown)", "target or system": "3T3-L1 preadipocytes", "assay": "adipogenesis, Oil Red O staining", "conditions": "IC20, 14 days", "quantity": "mean lipid content", "value": "0.536 OD492"}
{"SMILES": "O=C(NNc1ccccc1)c1nnc(CC23CC4CC(CC(C4)C2)C3)o1", "target or system": "Fusarium graminearum", "assay": "fungal growth, inhibitor", "quantity": "EC50", "value": "> 25 µg/mL"}
{"SMILES": "CN1CC[C@]23c4c5ccc(O)c4O[C@H]2[C@@H](O)C=C[C@H]3[C@H]1C5", "assay": "hot water tail withdrawal test", "test system": "STZ-diabetic Sprague-Dawley rats", "conditions": "ip, 3 mg/kg", "quantity": "peak increase in tail withdrawal latency", "value": "3.3 ± 0.3 s"}
{"SMILES": "CS(=O)(=O)Nc1ncn(-c2cc(F)c(COc3ccc(OS(=O)(=O)F)cc3)c(F)c2)n1", "target or system": "Mycobacterium tuberculosis", "test system": "Erdman", "quantity": "MIC90", "value": "0.04 µM"}
{"SMILES": "COc1c(CCC[P+](c2ccccc2)(c2ccccc2)c2ccccc2)cc2c(c1OC)OCO2.[I-]", "target or system": "HOP-92", "assay": "SRB", "quantity": "GI50", "value": "-6.3 log M"}
{"SMILES": "CC(C)N1CCC(NC2CCN(c3cccc(-c4cc5cc(F)ccc5[nH]4)c3)CC2)CC1", "target or system": "M14", "quantity": "CC50", "value": "6.43 µM"}
{"SMILES": "Nc1ncnc2c1ncn2[C@@H]1O[C@@H]2COP(=O)(O)O[C@H]3[C@@H](O)[C@H](n4cnc5c(=O)[nH]cnc54)O[C@@H]3COP(=O)(O)O[C@H]2[C@H]1O", "target or system": "HFF-1", "assay": "RNA sequencing, refers to: Reactome Signaling by Interleukins", "conditions": "upregulated pathways", "how to read": "reference: mock", "quantity": "fold enrichment", "value": 3.05}
{"SMILES": "CCCCC1(CCCC)CN(c2ccccc2)c2cc(SC)c(OCC(=O)N[C@@H](C(=O)NCC(=O)O)c3ccccc3)cc2S(=O)(=O)C1", "assay": "refers to: HDL cholesterol", "test system": "human, serum", "conditions": "10 mg once daily, day 1", "quantity": "serum HDL-C", "value": "51.1 mg/dL"}
{"SMILES": "CC(=O)c1c(C)c2cnc(Nc3ccc(C4CCN(CCS(C)(=O)=O)CC4)cn3)nc2n(C2CCCC2)c1=O", "assay": "tumour growth", "test system": "mouse, MDA-MB-435S xenograft", "conditions": "oral, 40 mg/kg twice daily, 25 days", "quantity": "T/C", "value": "48%"}
{"note": "Some of these lines once more:"}
{"SMILES": "CO/C=C(/C(=O)OC)c1ccccc1Oc1cc(Oc2ccccc2C#N)ncn1", "target or system": "Fusarium graminearum", "assay": "fungal growth, inhibitor", "quantity": "EC50", "value": "20.2 ± 1.39 µg/mL"}
{"SMILES": "O=C1NC(=O)C(C2C3=C(CCCC3=O)Oc3ccc([N+](=O)[O-])cc32)C(=O)N1 (stereo not shown)", "target or system": "3T3-L1 preadipocytes", "assay": "adipogenesis, Oil Red O staining", "conditions": "IC20, 14 days", "quantity": "mean lipid content", "value": "0.536 OD492"}
